# Measured values gathered from unrelated publications.
# Numbered parts are unrelated; each lists some results of a single study.
# UniProt P16234, sequence (whole entry, looked up): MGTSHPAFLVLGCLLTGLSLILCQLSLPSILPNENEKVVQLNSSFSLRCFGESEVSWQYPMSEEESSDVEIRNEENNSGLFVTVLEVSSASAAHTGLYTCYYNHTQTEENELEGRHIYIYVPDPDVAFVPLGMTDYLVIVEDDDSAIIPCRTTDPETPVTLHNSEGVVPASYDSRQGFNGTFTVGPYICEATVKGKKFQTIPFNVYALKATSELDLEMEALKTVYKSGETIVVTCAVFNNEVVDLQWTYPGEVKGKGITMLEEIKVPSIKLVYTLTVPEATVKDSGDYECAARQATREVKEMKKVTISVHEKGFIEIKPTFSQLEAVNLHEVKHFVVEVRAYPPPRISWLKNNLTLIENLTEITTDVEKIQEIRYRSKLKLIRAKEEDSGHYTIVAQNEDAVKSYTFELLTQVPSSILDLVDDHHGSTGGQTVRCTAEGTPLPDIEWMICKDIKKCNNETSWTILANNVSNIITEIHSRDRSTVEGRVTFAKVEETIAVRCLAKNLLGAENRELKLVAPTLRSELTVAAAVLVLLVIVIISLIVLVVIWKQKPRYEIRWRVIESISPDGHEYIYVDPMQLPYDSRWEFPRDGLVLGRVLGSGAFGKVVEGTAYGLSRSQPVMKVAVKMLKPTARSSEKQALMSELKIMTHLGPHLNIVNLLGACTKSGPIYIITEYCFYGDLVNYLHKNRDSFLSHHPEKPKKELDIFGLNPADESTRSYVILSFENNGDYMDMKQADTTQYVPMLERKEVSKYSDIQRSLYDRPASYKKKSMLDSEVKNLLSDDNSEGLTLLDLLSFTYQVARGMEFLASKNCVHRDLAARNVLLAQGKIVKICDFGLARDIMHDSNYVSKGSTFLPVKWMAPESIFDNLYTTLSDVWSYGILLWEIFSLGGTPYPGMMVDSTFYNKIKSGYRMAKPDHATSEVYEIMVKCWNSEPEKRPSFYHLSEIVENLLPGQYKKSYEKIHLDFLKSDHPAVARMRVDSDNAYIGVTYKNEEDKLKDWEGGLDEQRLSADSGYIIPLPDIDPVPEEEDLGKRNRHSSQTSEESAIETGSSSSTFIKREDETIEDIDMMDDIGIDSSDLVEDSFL
# UniProt Q6DT37, sequence (whole entry, looked up): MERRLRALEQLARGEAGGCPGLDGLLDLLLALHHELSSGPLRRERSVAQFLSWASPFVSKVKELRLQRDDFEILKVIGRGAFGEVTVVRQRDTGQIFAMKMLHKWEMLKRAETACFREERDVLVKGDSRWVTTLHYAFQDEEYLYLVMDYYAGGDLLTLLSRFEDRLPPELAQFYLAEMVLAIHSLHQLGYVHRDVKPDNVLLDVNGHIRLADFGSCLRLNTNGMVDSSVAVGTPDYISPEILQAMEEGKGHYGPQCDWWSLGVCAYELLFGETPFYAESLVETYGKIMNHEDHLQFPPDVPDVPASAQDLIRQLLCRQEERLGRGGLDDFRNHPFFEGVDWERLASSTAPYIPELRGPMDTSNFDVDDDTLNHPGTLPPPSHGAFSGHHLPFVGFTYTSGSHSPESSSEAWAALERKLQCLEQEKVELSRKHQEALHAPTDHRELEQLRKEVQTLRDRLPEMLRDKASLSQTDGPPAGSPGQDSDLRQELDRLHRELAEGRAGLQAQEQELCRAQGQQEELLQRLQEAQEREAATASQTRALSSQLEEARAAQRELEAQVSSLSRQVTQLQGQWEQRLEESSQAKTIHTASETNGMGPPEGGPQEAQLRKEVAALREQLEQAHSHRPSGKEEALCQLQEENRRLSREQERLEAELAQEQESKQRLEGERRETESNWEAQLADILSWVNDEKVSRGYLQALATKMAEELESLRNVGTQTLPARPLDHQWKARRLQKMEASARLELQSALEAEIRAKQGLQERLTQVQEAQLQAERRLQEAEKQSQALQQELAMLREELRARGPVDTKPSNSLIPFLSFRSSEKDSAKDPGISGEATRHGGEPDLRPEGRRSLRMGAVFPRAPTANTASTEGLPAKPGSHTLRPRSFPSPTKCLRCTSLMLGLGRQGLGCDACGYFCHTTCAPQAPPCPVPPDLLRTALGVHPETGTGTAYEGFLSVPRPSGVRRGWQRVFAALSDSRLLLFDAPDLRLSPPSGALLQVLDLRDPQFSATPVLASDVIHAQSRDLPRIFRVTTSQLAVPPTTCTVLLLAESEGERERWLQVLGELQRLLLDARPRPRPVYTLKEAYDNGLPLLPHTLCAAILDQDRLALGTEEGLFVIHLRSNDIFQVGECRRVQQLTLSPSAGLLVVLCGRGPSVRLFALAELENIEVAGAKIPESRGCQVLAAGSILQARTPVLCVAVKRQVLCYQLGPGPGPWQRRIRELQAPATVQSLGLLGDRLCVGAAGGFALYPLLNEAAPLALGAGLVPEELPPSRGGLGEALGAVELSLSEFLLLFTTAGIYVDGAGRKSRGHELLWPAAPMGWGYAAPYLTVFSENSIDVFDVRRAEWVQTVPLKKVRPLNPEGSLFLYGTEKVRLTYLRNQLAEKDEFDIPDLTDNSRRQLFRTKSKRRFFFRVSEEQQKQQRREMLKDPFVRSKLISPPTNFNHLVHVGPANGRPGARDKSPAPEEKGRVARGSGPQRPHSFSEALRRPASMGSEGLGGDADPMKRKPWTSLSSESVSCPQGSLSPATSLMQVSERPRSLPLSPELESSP
# UniProt Q96L34, sequence (whole entry, looked up): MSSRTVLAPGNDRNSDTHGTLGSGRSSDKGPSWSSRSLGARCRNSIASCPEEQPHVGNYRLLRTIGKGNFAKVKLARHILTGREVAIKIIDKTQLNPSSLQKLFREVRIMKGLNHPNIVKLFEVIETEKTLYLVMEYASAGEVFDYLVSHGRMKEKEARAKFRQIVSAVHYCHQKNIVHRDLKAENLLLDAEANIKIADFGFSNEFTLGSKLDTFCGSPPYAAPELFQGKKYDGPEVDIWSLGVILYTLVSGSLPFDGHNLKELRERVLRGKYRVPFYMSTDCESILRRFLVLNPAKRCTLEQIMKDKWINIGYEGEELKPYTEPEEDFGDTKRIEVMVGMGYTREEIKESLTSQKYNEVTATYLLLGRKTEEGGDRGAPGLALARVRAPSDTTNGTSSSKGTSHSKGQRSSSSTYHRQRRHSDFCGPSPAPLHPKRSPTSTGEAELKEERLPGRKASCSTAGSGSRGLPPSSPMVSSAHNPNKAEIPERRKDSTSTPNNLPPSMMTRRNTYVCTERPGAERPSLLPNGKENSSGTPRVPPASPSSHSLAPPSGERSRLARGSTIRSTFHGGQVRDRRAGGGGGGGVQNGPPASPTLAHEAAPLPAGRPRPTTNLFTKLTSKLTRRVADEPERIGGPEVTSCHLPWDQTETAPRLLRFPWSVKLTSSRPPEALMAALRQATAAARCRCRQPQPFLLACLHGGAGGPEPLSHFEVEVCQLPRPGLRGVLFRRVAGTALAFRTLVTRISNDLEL
# UniProt O95382, sequence (whole entry, looked up): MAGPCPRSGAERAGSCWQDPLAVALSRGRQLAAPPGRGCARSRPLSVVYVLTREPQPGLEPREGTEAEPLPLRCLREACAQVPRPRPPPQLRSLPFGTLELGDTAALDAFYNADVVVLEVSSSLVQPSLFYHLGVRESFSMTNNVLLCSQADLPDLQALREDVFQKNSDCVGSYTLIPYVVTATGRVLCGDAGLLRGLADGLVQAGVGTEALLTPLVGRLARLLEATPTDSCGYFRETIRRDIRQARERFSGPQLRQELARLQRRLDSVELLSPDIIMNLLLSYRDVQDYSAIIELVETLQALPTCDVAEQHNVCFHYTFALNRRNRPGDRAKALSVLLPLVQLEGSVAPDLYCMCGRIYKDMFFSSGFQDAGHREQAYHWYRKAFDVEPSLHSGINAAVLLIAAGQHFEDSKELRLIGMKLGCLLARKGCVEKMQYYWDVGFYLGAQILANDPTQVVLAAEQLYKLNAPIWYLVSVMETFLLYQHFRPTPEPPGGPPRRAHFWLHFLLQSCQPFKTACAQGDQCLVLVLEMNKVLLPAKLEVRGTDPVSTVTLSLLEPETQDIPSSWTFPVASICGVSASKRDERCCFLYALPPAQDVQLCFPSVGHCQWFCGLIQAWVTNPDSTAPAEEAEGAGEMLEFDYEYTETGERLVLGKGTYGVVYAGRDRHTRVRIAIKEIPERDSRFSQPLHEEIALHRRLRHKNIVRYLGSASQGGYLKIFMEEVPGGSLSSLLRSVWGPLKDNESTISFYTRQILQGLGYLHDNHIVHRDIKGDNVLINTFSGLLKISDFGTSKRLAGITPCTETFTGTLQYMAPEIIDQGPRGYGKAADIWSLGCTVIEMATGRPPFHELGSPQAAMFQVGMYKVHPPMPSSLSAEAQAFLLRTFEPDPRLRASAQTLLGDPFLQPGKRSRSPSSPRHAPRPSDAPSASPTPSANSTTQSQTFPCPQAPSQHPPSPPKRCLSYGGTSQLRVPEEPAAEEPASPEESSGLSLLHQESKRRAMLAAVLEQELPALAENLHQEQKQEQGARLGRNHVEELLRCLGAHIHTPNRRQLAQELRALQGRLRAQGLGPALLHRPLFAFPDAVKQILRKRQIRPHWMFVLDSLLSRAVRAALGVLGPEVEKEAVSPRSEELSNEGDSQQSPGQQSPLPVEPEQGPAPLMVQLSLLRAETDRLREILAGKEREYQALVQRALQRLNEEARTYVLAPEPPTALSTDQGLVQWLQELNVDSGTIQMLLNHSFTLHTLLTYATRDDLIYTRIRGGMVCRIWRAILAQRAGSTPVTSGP

# Block 1
# Structure (SMILES): O=C(O)[C@@H]1[C@@H](Cn2nnc3ccccc3c2=O)CC[C@H]1C(=O)c1ccc(OCCC2CCOCC2)cc1
# Concentration: 1 µM
target,effect on,technique,remaining binding [%]
"MAP/microtubule affinity-regulating kinase 4 (MARK4, Homo sapiens, UniProt Q96L34)",cell-free assay,competition with immobilised ligand,100
"Mitogen-activated protein kinase kinase kinase 6 (MAP3K6, Homo sapiens, UniProt O95382)",cell-free assay,competition with immobilised ligand,79
"Platelet-derived growth factor receptor alpha (PDGFRA, Homo sapiens, UniProt P16234)",cell-free assay,competition with immobilised ligand,100
"Serine/threonine-protein kinase MRCK gamma (CDC42BPG, Homo sapiens, UniProt Q6DT37)",,competition binding,100
"Receptor-type tyrosine-protein kinase FLT3 (FLT3, Homo sapiens, UniProt P36888, D835H)",cell-free assay,competition with immobilised ligand,83

# Block 2
# Compound: CC(C)n1cnc(-c2ccc(F)cc2)c1-c1ncc(C(=O)Nc2ccc(N3CCN(C)CC3)cc2)[nH]1
# Technique: Phase 2a trial
# Species: human, idiopathic pulmonary fibrosis
item,dose,setting,patients with adverse event [%]
hyperuricaemia,30 mg once daily,grade 4,0
hyperlipidaemia,60 mg once daily,grade 5,0
blood fibrinogen increased,60 mg once daily,grade 1,0
hypocalcaemia,30 mg once daily,grade 2,0

# Block 3
# Organism: Sarcocystis neurona
# Effect on: parasite growth
# Concentration: 10 µM
Compound,inhibition [%]
Cc1nc2n(c(=O)c1CCN1CCC(c3noc4cc(F)ccc34)CC1)CCCC2,2.2
CC(C)(C)NC[C@H](O)COc1nsnc1N1CCOCC1,-31.6
COc1cc([C@@H]2c3cc4c(cc3[C@@H](O[C@@H]3O[C@@H]5CO[C@@H](C)O[C@H]5[C@H](O)[C@H]3O)[C@H]3COC(=O)[C@H]23)OCO4)cc(OC)c1O,-22.2

# Block 4
# Target: Calcium/calmodulin-dependent protein kinase type 1D (CAMK1D, Homo sapiens, UniProt Q8IU85)
# UniProt Q8IU85, sequence (whole entry, looked up): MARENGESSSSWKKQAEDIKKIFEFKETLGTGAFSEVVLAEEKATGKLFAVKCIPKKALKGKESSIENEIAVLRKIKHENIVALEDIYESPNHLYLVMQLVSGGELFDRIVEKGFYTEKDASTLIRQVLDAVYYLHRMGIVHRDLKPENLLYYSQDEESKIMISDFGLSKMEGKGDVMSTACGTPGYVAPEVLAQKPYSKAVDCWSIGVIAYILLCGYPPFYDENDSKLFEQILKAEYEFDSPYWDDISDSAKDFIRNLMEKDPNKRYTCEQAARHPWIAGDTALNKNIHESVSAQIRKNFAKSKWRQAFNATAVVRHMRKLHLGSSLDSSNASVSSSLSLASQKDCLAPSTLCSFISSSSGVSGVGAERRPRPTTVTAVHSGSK
# Effect on: enzyme activity
# Action: inhibitor
# Concentration: 0.5 µM
# Baseline: control
SMILES,remaining activity [%]
N#CC(c1ccnc(NCCc2cccnc2)n1)c1nc2ccccc2s1 (centres unmarked),108
O=C1Nc2ccc(Br)cc2/C1=C/c1cc2c([nH]1)CCCC2,96.8
CC(C)(C)c1nc2c3cc[nH]c(=O)c3c3cc(F)ccc3c2[nH]1,81.6
O=C(c1ccccc1)c1ccc(N2CCOCC2)cc1O,99.1
O=C(c1cc2cc(O)ccc2[nH]1)c1cc2cc(O)ccc2[nH]1,91.5
C[C@@H](N)[C@H]1CC[C@H](C(=O)Nc2ccncc2)CC1,93.7
NC(=O)c1ccc(-c2nc(-c3ccc4c(c3)OCCO4)c(-c3ccccn3)[nH]2)cc1,99
Nc1nc(Nc2ccc(S(N)(=O)=O)cc2)nn1C(=S)Nc1c(F)cccc1F,93.4
O=C1c2ccccc2-c2nc3nnnn3nc21,93.9
c1cc(-c2cnn3cc(-c4ccc(OCCN5CCCCC5)cc4)cnc23)ccn1,95.4
O=Nc1c(-c2c(O)[nH]c3ccccc23)[nH]c2ccccc12,92.3
O=C1Nc2ccccc2/C1=C\c1c(Cl)[nH]c2ccccc12,102
O=C1Cc2c([nH]c3ccc(Br)cc23)-c2ccccc2N1,112
Cc1ccc(S(=O)(=O)/C=C/C#N)cc1,108
O=C1NC(=O)c2c1c1c3ccccc3[nH]c1n1cncc21,91.9

# Block 5
# Cell line: A-375
# Concentration: 100 µM
# Time: 36 h
Compound,viability [%]
CCOC(CN1CCN(CC(C)C(=O)c2ccccc2)CC1)c1ccccc1 (centres unmarked),41.8
CCCN[C@H]1CCc2nc(N)sc2C1,97.4
O=C1CN(/N=C/c2ccc(-c3ccc([N+](=O)[O-])cc3)o2)C(O)=N1,77.2
Cc1nnc(NS(=O)(=O)c2ccc(N)cc2)s1,109
CN(C)CCC(c1ccc(Br)cc1)c1ccccn1 (centres unmarked),76

# Repeated from above (block 4):
SMILES,remaining activity [%]
NC(=O)c1ccc(-c2nc(-c3ccc4c(c3)OCCO4)c(-c3ccccn3)[nH]2)cc1,99
O=C1NC(=O)c2c1c1c3ccccc3[nH]c1n1cncc21,91.9
